{"data": "Assay results collected from several papers", "note": "Compare with care: the assays were run in different laboratories. ± marks the error that the study gave."}
{"SMILES": "O=C([O-])c1cccc(CN(CCN(Cc2cn(Cc3ccccc3)nn2)Cc2cccc(C(=O)[O-])n2)Cc2cn(Cc3ccccc3)nn2)n1.[64Cu+2]", "system": "healthy athymic nude mice, muscle", "conditions": "intravenous, 4 h", "tissue uptake [%ID/g]": 0.47}
{"SMILES": "O=C(NCC1OC2CCC=CCCC2O1)c1ccc(COCCOCCOCC[18F])cc1 (stereo not drawn)", "system": "female BALB/c nude mice, kidneys", "conditions": "intravenous, 60 min", "tissue uptake [%ID/g]": "5 ± 1.7"}
{"SMILES": "NC12CNCCNCC(NCc3ccc(CNC(=O)CCCC(=O)NCc4ccc(-c5nncnn5)cc4)cc3)(CNCCNC1)CNCCNC2.[64Cu+2]", "system": "athymic nude mice SW1222 xenograft, bone", "conditions": "1 h post injection, 24 h accumulation interval, together with: huA33-TCO pretargeting", "tissue uptake [%ID/g]": "0.67 ± 0.14"}
{"SMILES": "CCCC[C@@H]1NC(=O)[C@@H](NC(=O)[C@H](CCC(=O)O)NC(=O)CNC(=O)CN2CCN(CC(=O)O)CCN(CC(=O)O)CCN(CC(=O)O)CC2)CCCCNC(=O)C[C@@H](C(N)=O)NC(=O)[C@H](C(C)C)NC(=O)[C@@H]2CCCN2C(=O)[C@H](CCCNC(=N)N)NC(=O)CNC(=O)[C@H](Cc2c[nH]c3ccccc23)NC(=O)[C@H](CCCNC(=N)N)NC(=O)[C@@H](Cc2ccccc2)NC(=O)[C@H](Cc2c[nH]cn2)NC(=O)[C@H](CCC(=O)O)NC1=O [gallium-67 labelled]", "system": "C57 mice, B16/F1 flank melanoma, bone", "conditions": "intravenous, 2 h, together with: blocking peptide 10 µg", "tissue uptake [%ID/g]": "0.18 ± 0.03"}
{"SMILES": "CCCC[C@H](NC(=O)CNC(=O)CNC(=O)CN1CCN(CC(=O)O)CCN(CC(=O)O)CCN(CC(=O)O)CC1)C(=O)N[C@H]1CC(=O)NCCCC[C@@H](C(N)=O)NC(=O)[C@H](Cc2c[nH]c3ccccc23)NC(=O)[C@H](CCCNC(=N)N)NC(=O)[C@@H](Cc2ccccc2)NC(=O)[C@H](Cc2c[nH]cn2)NC1=O [gallium-67 labelled]", "system": "female C57 mice, B16/F1 melanoma, stomach", "conditions": "intravenous, 0.037 MBq, 2 h", "tissue uptake [%ID/g]": "1.68 ± 0.5"}
{"SMILES": "CC(C)[C@H](NC(=O)[C@@H]1CCCN1C(=O)[C@H](CCCNC(=N)N)NC(=O)[C@H](CS)NC(=O)[C@H](Cc1c[nH]c2ccccc12)NC(=O)[C@H](CCCNC(=N)N)NC(=O)[C@@H](Cc1ccccc1)NC(=O)[C@H](Cc1c[nH]cn1)NC(=O)[C@H](CCC(=O)O)NC(=O)[C@H](CS)NC(=O)[C@H](CS)NC(=O)[C@@H]1CC(=O)N[C@@H](CCCNC(=N)N)C(=O)NCC(=O)N[C@@H](CC(=O)O)C(=O)N[C@H](Cc2ccc(O)cc2)C(=O)N1)C(N)=O [technetium-99m labelled]", "system": "C57 mice B16/F1 melanoma female, skin", "conditions": "iv, 2 h, together with: NDP-MSH 10 µg co-injected", "tissue uptake [%ID/g]": "0.99 ± 0.35"}
{"SMILES": "O=C([O-])CN1CCN(CC(=O)[O-])CCN(CC(=O)[O-])CCN(CC(=O)[O-])CC1.[64Cu+2]", "system": "healthy athymic nude mice, muscle", "conditions": "intravenous, 15 min", "tissue uptake [%ID/g]": 0.72}
{"SMILES": "N=C(N)NCCC[C@H](NC(=O)CON=C[C@H](F)[C@@H](O)[C@H](O)[C@H](O)CO)C(=O)NCC(=O)N[C@@H](CC(=O)O)C(=O)O [fluorine-18 labelled]", "system": "nude mice U-87 MG tumour, stomach", "conditions": "intravenous, 2 h", "tissue uptake [%ID/g]": "0.3 ± 0.32"}
{"SMILES": "CCCC[C@H](NC(=O)CN1CCC(NC(=O)CN2CCN(CC(=O)O)CCN(CC(=O)O)CCN(CC(=O)O)CC2)CC1)C(=O)N[C@H]1CC(=O)NCCCC[C@@H](C(N)=O)NC(=O)[C@H](Cc2c[nH]c3ccccc23)NC(=O)[C@H](CCCNC(=N)N)NC(=O)[C@@H](Cc2ccccc2)NC(=O)[C@H](Cc2c[nH]cn2)NC1=O [gallium-68 labelled]", "system": "C57BL/6J mice male B16-F10 tumour, kidney", "conditions": "2 h post injection, unblocked", "tissue uptake [%ID/g]": "5.5 ± 0.4"}
{"SMILES": "CN1C(=O)[C@@H](Cc2ccc(O)c(I)c2)NC(=O)CNC(=O)[C@H](Cc2ccc3ccccc3c2)NC(=O)[C@H](CCCNC(=N)N)NC(=O)[C@H]1CCCNC(=O)c1ccc(CNC(=O)CN2CCN(CC(=O)O)CCN(CC(=O)O)CCN(CC(=O)O)CC2)cc1 [lutetium-177 labelled]", "assay": "item: 177Lu radioactivity", "system": "female CB-17 SCID mice, Daudi xenograft, tumor", "conditions": "intravenous, 0.16 nmol per mouse, 96 h", "tissue uptake [%ID/g]": "2.07 ± 0.12"}
{"SMILES": "CCCC[C@H](NC(=O)CNC(=O)CNC(=O)CN1CCN(CC(=O)O)CCN(CC(=O)O)CC1)C(=O)N[C@H]1CC(=O)NCCCC[C@@H](C(N)=O)NC(=O)[C@H](Cc2c[nH]c3ccccc23)NC(=O)[C@H](CCCNC(=N)N)NC(=O)[C@@H](Cc2ccccc2)NC(=O)[C@H](Cc2c[nH]cn2)NC1=O [gallium-67 labelled]", "system": "female C57 mice, B16/F1 melanoma, spleen", "conditions": "intravenous, 0.037 MBq, 4 h", "tissue uptake [%ID/g]": "0.57 ± 0.14"}
{"SMILES": "O=C([O-])CN1CCN(CC(=O)[O-])CCN(CC(=O)NCCc2ccc3c(c2)C2C=CCC2C(c2cc4c(cc2Br)OCO4)N3)CCN(CC(=O)[O-])CC1.[111In+3] (stereo not drawn)", "system": "mice with Hec50 tumour xenograft, spleen", "conditions": "2 h, together with: G-1 5 µg blocking", "tissue uptake [%ID/g]": "0.91 ± 0.71"}
{"note": "Repeated from above:"}
{"SMILES": "CC(C)[C@H](NC(=O)[C@@H]1CCCN1C(=O)[C@H](CCCNC(=N)N)NC(=O)[C@H](CS)NC(=O)[C@H](Cc1c[nH]c2ccccc12)NC(=O)[C@H](CCCNC(=N)N)NC(=O)[C@@H](Cc1ccccc1)NC(=O)[C@H](Cc1c[nH]cn1)NC(=O)[C@H](CCC(=O)O)NC(=O)[C@H](CS)NC(=O)[C@H](CS)NC(=O)[C@@H]1CC(=O)N[C@@H](CCCNC(=N)N)C(=O)NCC(=O)N[C@@H](CC(=O)O)C(=O)N[C@H](Cc2ccc(O)cc2)C(=O)N1)C(N)=O [technetium-99m labelled]", "system": "C57 mice B16/F1 melanoma female, skin", "conditions": "iv, 2 h, together with: NDP-MSH 10 µg co-injected", "tissue uptake [%ID/g]": "0.99 ± 0.35"}
{"SMILES": "O=C([O-])CN1CCN(CC(=O)[O-])CCN(CC(=O)[O-])CCN(CC(=O)[O-])CC1.[64Cu+2]", "system": "healthy athymic nude mice, muscle", "conditions": "intravenous, 15 min", "tissue uptake [%ID/g]": 0.72}
